{"data": "Published values gathered from unrelated publications", "organism": "Staphylococcus aureus"}
{"Structure (SMILES)": "CC[C@H]1OC(=O)[C@H](C)[C@@H](OC(=O)Cc2ccc3c(c2)OCO3)[C@H](C)[C@@H](O[C@@H]2O[C@H](C)C[C@H](N(C)C)[C@H]2O)[C@](C)(OC)C[C@@H](C)C(=O)[C@H](C)[C@@H](O)[C@]1(C)O", "test system": "ATCC 43300 MRSA", "MIC": "> 64 µg/mL"}
{"Structure (SMILES)": "CCCCCCCC(=O)N[C@@H](CC(N)=O)C(=O)N[C@H]1CNC(=O)[C@H](c2ccc(O)c(Cl)c2)NC(=O)[C@@H](C)NC(=O)[C@H](CC(C)C)NC(=O)CNC(=O)[C@H](c2ccc(O)cc2)NC(=O)[C@@H]([C@H](C)O)NC(=O)[C@H](c2ccc(O)cc2)NC(=O)[C@@H](CCCN)NC(=O)[C@H](Cc2ccccc2)NC(=O)[C@H]([C@@H](C)O)NC(=O)[C@@H](c2ccc(O)cc2)NC(=O)[C@H](c2ccc(O)cc2)NC(=O)[C@@H]([C@H](C)O)NC(=O)[C@@H](CCCN)NC(=O)[C@@H](c2ccc(F)cc2)NC1=O", "test system": "MSSA ATCC 29213", "MIC": "> 16 µM"}
{"Structure (SMILES)": "CC[C@H](C)[C@@H]1NC(=O)[C@H](CCC(=O)O)NC(=O)[C@@H]2CSSC[C@@H]3NC(=O)[C@H](Cc4ccc(O)cc4)NC(=O)[C@@H](NC(=O)[C@@H](NC(=O)[C@H](C)N)[C@@H](C)O)CSSC[C@@H](C(=O)N[C@@H](CCCNC(=N)N)C(=O)O)NC(=O)[C@H](CSSC[C@H](NC(=O)[C@H](CCCNC(=N)N)NC(=O)CNC(=O)[C@H]([C@@H](C)O)NC(=O)[C@H](CCCNC(=N)N)NC3=O)C(=O)N[C@@H](C)C(=O)N[C@@H]([C@@H](C)O)C(=O)N[C@@H](CCCNC(=N)N)C(=O)N[C@@H](CCC(=O)O)C(=O)N[C@@H](CO)C(=O)N[C@@H](CC(C)C)C(=O)N[C@@H](CO)C(=O)NCC(=O)N[C@@H](C(C)C)C(=O)N2)NC(=O)[C@H](CC(C)C)NC(=O)[C@H](CCCNC(=N)N)NC(=O)[C@H](Cc2ccc(O)cc2)NC(=O)[C@H](CC(C)C)NC(=O)[C@H](CCCNC(=N)N)NC(=O)CNC(=O)[C@H](CO)NC1=O", "test": "broth turbidity", "test system": "USA300", "MIC": "11.2 µg/mL"}
{"Structure (SMILES)": "CC[C@H]1OC(=O)[C@H](C)[C@@H](OC(=O)CC2CCCCC2)[C@H](C)[C@@H](O[C@@H]2O[C@H](C)C[C@H](N(C)C)[C@H]2O)[C@](C)(OC)C[C@@H](C)C(=O)[C@H](C)[C@@H](O)[C@]1(C)O", "test": "microbial growth", "test system": "BAA976", "MIC": "2 µg/mL"}
{"Structure (SMILES)": "CCCCCCC#Cc1cncc(-c2nnc(SCc3ccc(Cl)cc3)n2C)c1", "test": "microbial growth, broth dilution", "test system": "ATCC29213", "MIC": "> 64 µg/mL"}
{"Structure (SMILES)": "COc1nc(C(=O)Nc2ccc(C(=O)O)nc2OC)ccc1NC(=O)c1ccc(NC(=O)[C@H](Cc2c[nH]nn2)NC(=O)c2ccc(NC(=O)/C(C)=C/c3ccc(O)cc3)cc2)cc1", "test": "broth microdilution", "test system": "ciprofloxacin-resistant", "MIC": "16 µg/mL"}
{"Structure (SMILES)": "CCCCCCCCCCCC[N+](C)(C)CCCCCCCCOc1cc(OCCCCCCCC[N+](C)(C)CCCCCCCCCCCC)cc(OCCCCCCCC[N+](C)(C)CCCCCCCCCCCC)c1.[Br-].[Br-].[Br-]", "test system": "SH1000 MSSA", "MIC": "8 µM"}
{"Structure (SMILES)": "O=C(Nc1ccccc1)Nc1ccc(Cl)c(C(F)(F)F)c1", "test": "microbial growth", "test system": "NCTC8325", "MIC": "3 µM"}
{"Structure (SMILES)": "CCCCCCCCCC[N+](C)(C)CCCCCCCCCCOc1cc(OCCCCCCCCCC[N+](C)(C)CCCCCCCCCC)cc(OCCCCCCCCCC[N+](C)(C)CCCCCCCCCC)c1.[Br-].[Br-].[Br-]", "test system": "HA-MRSA ATCC 33591", "MIC": "32 µM"}
{"Structure (SMILES)": "CC[C@H]1OC(=O)[C@H](C)C(=O)[C@H](C)[C@@H](O[C@@H]2O[C@H](C)C[C@H](N(C)C)[C@H]2O)[C@](C)(OC)C[C@@H](C)C(=O)[C@H](C)[C@H]2N(CCCCn3cnc(-c4cccnc4)c3)C(=O)O[C@]12C", "test": "microbial growth", "test system": "BAA976", "MIC": "32 µg/mL"}
{"Structure (SMILES)": "CCCCCCCCCCCC[N+](C)(C)CCCCOc1cc(OCCCC[N+](C)(C)CCCCCCCCCCCC)cc(OCCCC[N+](C)(C)CCCCCCCCCCCC)c1.[Br-].[Br-].[Br-]", "test system": "CA-MRSA USA300-0114", "MIC": "2 µM"}
{"Structure (SMILES)": "C#CCNC(=O)[C@H]1NC(=O)[C@H]2NC(=O)[C@H](NC(=O)[C@@H]3NC(=O)[C@H](CC(N)=O)NC(=O)[C@H](NC(=O)[C@@H](CC(C)C)NC)[C@H](O)c4ccc(c(Cl)c4)Oc4cc3cc(c4O[C@@H]3O[C@H](CO)[C@@H](O)[C@H](O)[C@H]3O[C@H]3C[C@](C)(N)[C@H](O)[C@H](C)O3)Oc3ccc(cc3Cl)[C@H]2O)c2ccc(O)c(c2)-c2c(O)cc(O)cc21", "test": "broth microdilution", "test system": "MRSA USA300, cation-adjusted Mueller-Hinton broth", "conditions": "20 to 24 h, 37 °C, 0.002% polysorbate 80", "MIC": "0.5 µg/mL"}
{"Structure (SMILES)": "CCC(CC)c1cc(CCN2CCCNCC2)nc(-c2ccccn2)n1", "test": "microbial growth, broth dilution", "test system": "ATCC29213", "MIC": "> 16 µg/mL"}
{"Structure (SMILES)": "COc1cccc(OC)c1C(=O)N[C@@H]1C(=O)N2[C@@H]1SC(C)(C)[C@@H]2C(=O)O", "test": "microbial growth, broth dilution", "test system": "43300", "MIC": "4 µM"}
{"Structure (SMILES)": "COc1c(C)c(OC(=O)c2ccccc2)c(C)c(OC(=O)c2ccccc2)c1C(=O)/C=C/c1ccccc1", "test": "microbial growth, broth dilution", "test system": "ATCC25923", "MIC": "2500 µg/mL"}
{"Structure (SMILES)": "C=C1CN(C(=N)N)CC2Nc3c(F)cc(Br)cc3C12CCNS(=O)(=O)c1ccc(Cl)cc1.O=C(O)C(F)(F)F (centres unmarked)", "test system": "MRSA ATCC BAA-44", "conditions": "compound alone", "MIC": "8 µg/mL"}
{"Structure (SMILES)": "CC[C@H]1OC(=O)[C@H](C)[C@@H](OC(=O)c2ccc([N+](=O)[O-])cc2)[C@H](C)[C@@H](O[C@@H]2O[C@H](C)C[C@H](N(C)C)[C@H]2O)[C@](C)(OC)C[C@@H](C)C(=O)[C@H](C)[C@@H](O)[C@]1(C)O", "test system": "BAA-977", "MIC": "> 64 µg/mL"}
{"Structure (SMILES)": "CCCCCCCC[N+](C)(C)CCCCOc1cc(OCCCC[N+](C)(C)CCCCCCCC)cc(OCCCC[N+](C)(C)CCCCCCCC)c1.[Br-].[Br-].[Br-]", "test system": "CA-MRSA USA300-0114", "MIC": "0.5 µM"}
{"Structure (SMILES)": "CC[C@H](C)[C@H](N)C1=N[C@H](C(=O)N[C@@H](CC(C)C)C(=O)N[C@H](CCC(=O)O)C(=O)N[C@H](C(=O)N[C@H]2CCCCNC(=O)[C@H](CC(N)=O)NC(=O)[C@@H](CC(=O)O)NC(=O)[C@H](Cc3c[nH]cn3)NC(=O)[C@@H](Cc3ccccc3)NC(=O)[C@H]([C@@H](C)CC)NC(=O)[C@@H](CCCN)NC2=O)[C@@H](C)CC)CS1", "test system": "ATCC 29213 MSSA", "conditions": "LB without zinc", "MIC": "16 µg/mL"}
{"Structure (SMILES)": "CCCCCCCCCCn1cc[n+](CCCCCCCCCCOc2cc(OCCCCCCCCCC[n+]3ccn(CCCCCCCCCC)c3)cc(OCCCCCCCCCC[n+]3ccn(CCCCCCCCCC)c3)c2)c1.[Br-].[Br-].[Br-]", "test system": "CA-MRSA USA300-0114", "MIC": "8 µM"}
{"Structure (SMILES)": "C#CCOc1ccc(CN[C@@]2(C)C[C@H](O[C@H]3[C@H](Oc4c5cc6cc4Oc4ccc(cc4Cl)[C@@H](O)[C@@H](NC(=O)[C@@H](CC(C)C)NC)C(=O)N[C@@H](CC(N)=O)C(=O)N[C@H]6C(=O)N[C@H]4C(=O)N[C@H](C(=O)N[C@H](C(=O)N[C@@H](CCCNC(=N)N)C(N)=O)c6cc(O)cc(O)c6-c6cc4ccc6O)[C@H](O)c4ccc(c(Cl)c4)O5)O[C@H](CO)[C@@H](O)[C@@H]3O)O[C@@H](C)[C@H]2O)cc1OC", "test": "broth microdilution", "test system": "MRSA USA300, cation-adjusted Mueller-Hinton broth", "conditions": "20 to 24 h, 37 °C, 0.002% polysorbate 80", "MIC": "0.5 µg/mL"}
{"Structure (SMILES)": "CC[C@H]1OC(=O)[C@H](C)[C@@H](OC(=O)Cc2ccc(Cl)cc2)[C@H](C)[C@@H](O[C@@H]2O[C@H](C)C[C@H](N(C)C)[C@H]2O)[C@](C)(OC)C[C@@H](C)C(=O)[C@H](C)[C@@H](O)[C@]1(C)O", "test system": "DSM 20231 MSSA", "MIC": "8 µg/mL"}
{"Structure (SMILES)": "COc1c(NC(=O)c2ccc(NC(=O)[C@H](Cc3c[nH]nn3)NC(=O)c3ccc(NC(=O)/C(C)=C/c4ccc(O)cc4)cc3)cc2)ccc(C(=O)Nc2ccc(C(=O)O)c(O)c2)c1O", "test": "broth microdilution", "test system": "ciprofloxacin-sensitive", "MIC": "1 µg/mL"}
{"note": "Repeated from above:"}
{"Structure (SMILES)": "COc1cccc(OC)c1C(=O)N[C@@H]1C(=O)N2[C@@H]1SC(C)(C)[C@@H]2C(=O)O", "test": "microbial growth, broth dilution", "test system": "43300", "MIC": "4 µM"}
{"Structure (SMILES)": "COc1c(C)c(OC(=O)c2ccccc2)c(C)c(OC(=O)c2ccccc2)c1C(=O)/C=C/c1ccccc1", "test": "microbial growth, broth dilution", "test system": "ATCC25923", "MIC": "2500 µg/mL"}
{"Structure (SMILES)": "C=C1CN(C(=N)N)CC2Nc3c(F)cc(Br)cc3C12CCNS(=O)(=O)c1ccc(Cl)cc1.O=C(O)C(F)(F)F (centres unmarked)", "test system": "MRSA ATCC BAA-44", "conditions": "compound alone", "MIC": "8 µg/mL"}
